Results collected from several papers.
Protocols differ between the studies behind these lines.
MTOR with FKBP12: Serine/threonine-protein kinase mTOR, with FKBP12 (MTOR, Homo sapiens, UniProt P42345)
MTOR: Serine/threonine-protein kinase mTOR (MTOR, Homo sapiens, UniProt P42345)

Structure (SMILES) = Cc1ccc(C(=O)NCc2ccsc2)cc1C#Cc1cn(C(C)C)c2ncnc(N)c12; target = MTOR with FKBP12; test = kinase activity; setting = 1 µM, added: ATP at Km; measurement = remaining activity; result = 109%
Structure (SMILES) = CCCOc1ccc(OC)c(F)c1C(=O)c1ccc(C(=O)N[C@@H]2CNC[C@H]2NC(=O)c2ccc3[nH]ncc3c2)cc1; target = MTOR with FKBP12; test = kinase activity; setting = 10 µM; measurement = remaining activity; result = 59%
Structure (SMILES) = Cc1cc(NC(=O)c2cccc3cc(-c4cccc5[nH]nc(N)c45)ccc23)ccc1F; target = MTOR with FKBP12; test = enzyme activity, kinase profiling panel; setting = 0.1 µM; measurement = remaining activity; result = 101%
Structure (SMILES) = CCN(CC)c1ccc(C2=NNC(=O)CC2C)cc1[N+](=O)[O-] (stereo not shown); target = MTOR with FKBP12; test = kinase activity, inhibitor; setting = 10 µM; measurement = remaining activity; result = 110%
Structure (SMILES) = C=CC(=O)N1CCC(COCC(=O)N2CCN(c3nc(-c4cnc(N)nc4C(F)F)nc(N4CCOC[C@@H]4C)n3)CC2)CC1; target = MTOR; test = enzyme activity; setting = 1 µM; measurement = remaining activity; result = 4.5%
Structure (SMILES) = COc1cc(Cl)c(C(=O)N[C@@H](CN[C@H]2CC[C@@H](N)CC2)Cc2ccc(C#N)cc2)cc1-c1ccc(CN[C@H](C)c2ccc(C)cc2)o1; target = MTOR with FKBP12; test = enzyme activity, KinaseProfiler panel; setting = 1 µM; measurement = remaining activity; result = 108%
Structure (SMILES) = Cc1nc(NC(=O)N2CCC[C@H]2C(N)=O)sc1-c1ccnc(C(C)(C)C(F)(F)F)c1; target = MTOR; setting = 10 µM; measurement = remaining activity; result = 12%
Structure (SMILES) = Cc1cnc(NC2CCOCC2)nc1-n1cnc(C(=O)NC(CN)c2cc(F)cc(Cl)c2)c1 (stereo not shown); target = MTOR with FKBP12; test = radiometric; setting = 1 µM; measurement = remaining activity; result = 108%
Structure (SMILES) = COc1cc(-c2cncc3c2CN(C)Cc2cc(N4CCNCC4)ccc2-3)cc(OC)c1OC; target = MTOR with FKBP12; test = enzyme activity; setting = 1 µM, added: 10 µM ATP; how to read = relative to: DMSO; measurement = remaining activity; result = 103%
Structure (SMILES) = O=C(NC1CCC1)c1ccc2nc(-c3cccc(NS(=O)(=O)NCCN4CCCCC4)c3)cn2c1; target = MTOR; test = enzyme activity; setting = 10 µM; measurement = remaining activity; result = 62%
Structure (SMILES) = COc1ccc2oc(-c3ccc4nc(N)oc4c3)c/c(=N\c3ccccc3NC(=O)CCN)c2c1; target = MTOR with FKBP12; test = kinase activity; setting = 1 µM; how to read = relative to: untreated control; measurement = remaining activity; result = 82%
Structure (SMILES) = CCN1CCN(Cc2ccc(NC(=O)c3ccc(C)c(Oc4ccnc5[nH]ccc45)c3)cc2C(F)(F)F)CC1; target = MTOR; test system = Huh-7; setting = 1 µM; measurement = inhibition; result = < 35%
Structure (SMILES) = c1cnc2ccc(Nc3nc(NC4CC4)c4nc[nH]c4n3)cc2c1; target = MTOR; test = kinase activity; setting = 1 µM; how to read = relative to: control; measurement = remaining activity; result = 86%
Structure (SMILES) = C=CC(=O)N1CCC(C(=O)NCC(=O)N2CCN(c3nc(-c4cnc(N)nc4C(F)F)nc(N4CCOCC4)n3)CC2)CC1; target = MTOR; setting = 1 µM; measurement = remaining activity; result = 1.2%
Structure (SMILES) = Cc1cc(Nc2cc(N3CCN(C)CC3)nc(Sc3ccc(NC(=O)C4CC4)cc3)n2)[nH]n1; target = MTOR; test = kinase activity; setting = 0.03 µM; how to read = relative to: control; measurement = remaining activity; result = 104%
Structure (SMILES) = Cc1ccc(NC(=O)c2ccc(C)c(C(F)(F)F)c2)cc1C#Cc1nn(C2CCC(O)CC2)c2ncnc(N)c12 (stereo not shown); target = MTOR with FKBP12; test = enzyme activity; setting = 10 µM, added: ATP 10 µM; measurement = remaining activity; result = 119%
